Assay results from different studies.
Protocols differ between the studies behind these lines. Numbers after ± are the reported error.
Organism: Plasmodium falciparum

Cc1ccccc1-n1nnnc1C(C1CC1)N(Cc1cccc(C(F)(F)F)c1)C1CC1 (stereo not drawn) — EC50 (parasite growth, SYBR Green; Dd2; 72 h): 4.2 µM
COc1ccc(NC(=O)NC[C@H]2O[C@H](n3cc(C)c(=O)[nH]c3=O)C[C@@H]2O)cc1 — EC50 (parasite growth, SYBR Green; 3D7; 48 h, blood stage): ~2 µM
CCN(CC)CCCC(C)Nc1ccnc2cc(Cl)ccc12 (stereo not drawn) — EC50 (parasite growth; 3D7; 72 h, blood stage): 0.0018 µM
O=C1C(O)=C([C@H]2CC[C@H](c3ccc(Cl)cc3)CC2)C(=O)c2ccccc21 — EC50 (TM90-C2B): 18 µM
Cc1ncccc1C(c1nnnn1C1CC1)N(C1CC1)C1(c2cccc(C(F)(F)F)c2)CC1 (stereo not drawn) — EC50 (parasite growth, SYBR Green; Dd2; 72 h): 21 µM
O=C(/C=C/c1cccc(O)c1)c1ccc(F)cc1 — EC50 (parasite growth; 3D7; 72 h, blood stage): 26.1 µM
COC(=O)c1[nH]cc(-c2c[nH]c3ccc(Cl)cc23)c1-c1c[nH]c2ccc(Cl)cc12 — EC50 (parasite growth, SYBR Green; 3D7; 72 h, blood stage): > 10 µM
Cc1cc(Nc2ccc(S(F)(F)(F)(F)F)cc2)n2nc(C(C)(F)F)nc2n1 — EC50 (liver-stage schizont size; human hepatocytes, NF54; 10% FCS): 5.7 ng/mL
CC(C)C[C@@H]1NC(=O)[C@@H](Cc2ccccc2)NC(=O)[C@H](CCCCCC(=O)C2CO2)NC(=O)[C@@H]2CCCCN2C1=O (stereo partly drawn) — EC50 (parasite growth, SYBR Green I; 3D7, drug-sensitive; 72 h): 0.13 ± 0.04 µM
Cc1cn([C@@H]2C[C@H](O)[C@@H](CNC(=O)Nc3ccc(C(C)(C)C)cc3)O2)c(=O)[nH]c1=O — EC50 (parasite growth, SYBR Green; 3D7; 48 h, blood stage): ~2 µM
O=C(O)c1cccc(C(=O)NCc2ccc(C(=O)NNC(=O)[C@H]3O[C@@H]3C(=O)N(Cc3cccc4ccccc34)Cc3cccc4ccccc34)cc2)c1 — EC50 (parasite replication, flow cytometry; 75 h, synchronous ring stage): 70 ± 20 µM
COc1ccc(C(F)(F)F)cc1CN(C)C(c1cccnc1)c1nnnn1-c1ccccc1C (single isomer, unassigned; (-)) — EC50 (parasite growth, SYBR Green; 3D7; 72 h): 1.2 µM
CC1CCN(Cc2cc(/C=C/C(=O)c3ccc(Cl)cc3)ccc2O)CC1 — EC50 (parasite growth, pLDH; 3D7, chloroquine-sensitive; 72 h): 17.04 ± 0.02 µM
Cc1ncc(C(C(=O)N(C)c2ccccc2C)N(Cc2cccc(C(F)(F)F)c2)C2CC2)cn1 (stereo not drawn) — EC50 (parasite growth, SYBR Green; Dd2; 72 h): 9.8 µM
O=C(/C=C/c1ccc(CN2CCCCC2)c(O)c1)c1ccc(Br)cc1 — EC50 (parasite growth; 3D7; 72 h, blood stage): 0.15 µM
O=C(NC1CCCC1)[C@@H]1CCCCOc2cccc(c2)C[C@H](N2CCCC2=O)C(=O)N[C@@H](CCN2CCOCC2)C(=O)N1 — EC50 (parasite growth; fresh clinical isolates, Uganda; geometric mean, ex vivo): 0.018 µM
Cc1cc(Nc2ccccc2)n2ncnc2n1 — EC50 (parasite growth, [3H]hypoxanthine uptake; 3D7): > 100 µM
O=C(/C=C/c1ccc(O)c(CN2CCOCC2)c1)c1ccc(F)cc1 — EC50 (parasite growth; 3D7; 72 h, blood stage): > 29.3 µM

Repeated from above:
Cc1cc(Nc2ccccc2)n2ncnc2n1 — EC50 (parasite growth, [3H]hypoxanthine uptake; 3D7): > 100 µM
CC(C)C[C@@H]1NC(=O)[C@@H](Cc2ccccc2)NC(=O)[C@H](CCCCCC(=O)C2CO2)NC(=O)[C@@H]2CCCCN2C1=O (stereo partly drawn) — EC50 (parasite growth, SYBR Green I; 3D7, drug-sensitive; 72 h): 0.13 ± 0.04 µM
Cc1ncc(C(C(=O)N(C)c2ccccc2C)N(Cc2cccc(C(F)(F)F)c2)C2CC2)cn1 (stereo not drawn) — EC50 (parasite growth, SYBR Green; Dd2; 72 h): 9.8 µM
